Assay results pooled from the literature.
A part holds a random share of what one study measured. “And” joins repeats or separate records; there may be more than shown.
UniProt Q9HAZ1, sequence (whole entry, looked up): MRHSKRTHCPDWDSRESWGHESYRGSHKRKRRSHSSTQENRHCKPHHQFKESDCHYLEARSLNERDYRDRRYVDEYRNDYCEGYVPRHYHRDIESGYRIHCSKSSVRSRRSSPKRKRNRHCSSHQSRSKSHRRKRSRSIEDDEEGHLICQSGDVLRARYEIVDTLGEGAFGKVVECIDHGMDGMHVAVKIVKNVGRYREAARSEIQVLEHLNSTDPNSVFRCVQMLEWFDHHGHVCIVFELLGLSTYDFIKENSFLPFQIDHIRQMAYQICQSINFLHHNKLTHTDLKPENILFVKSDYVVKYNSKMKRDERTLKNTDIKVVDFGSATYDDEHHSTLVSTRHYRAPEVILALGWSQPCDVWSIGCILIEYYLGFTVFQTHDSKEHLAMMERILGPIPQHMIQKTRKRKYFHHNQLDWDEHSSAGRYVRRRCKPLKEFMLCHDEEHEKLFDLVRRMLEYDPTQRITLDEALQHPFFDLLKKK
UniProt Q9UIK4, sequence (whole entry, looked up): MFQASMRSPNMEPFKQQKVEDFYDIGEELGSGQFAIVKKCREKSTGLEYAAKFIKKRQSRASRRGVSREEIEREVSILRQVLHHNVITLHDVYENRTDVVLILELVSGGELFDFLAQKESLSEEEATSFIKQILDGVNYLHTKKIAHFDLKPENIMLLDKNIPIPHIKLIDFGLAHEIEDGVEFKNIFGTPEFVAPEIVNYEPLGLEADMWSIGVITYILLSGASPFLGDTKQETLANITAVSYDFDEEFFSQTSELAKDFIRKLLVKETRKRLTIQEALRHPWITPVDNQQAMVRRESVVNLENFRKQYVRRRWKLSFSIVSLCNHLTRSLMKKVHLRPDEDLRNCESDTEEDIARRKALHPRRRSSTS
UniProt Q8IVH8, sequence (whole entry, looked up): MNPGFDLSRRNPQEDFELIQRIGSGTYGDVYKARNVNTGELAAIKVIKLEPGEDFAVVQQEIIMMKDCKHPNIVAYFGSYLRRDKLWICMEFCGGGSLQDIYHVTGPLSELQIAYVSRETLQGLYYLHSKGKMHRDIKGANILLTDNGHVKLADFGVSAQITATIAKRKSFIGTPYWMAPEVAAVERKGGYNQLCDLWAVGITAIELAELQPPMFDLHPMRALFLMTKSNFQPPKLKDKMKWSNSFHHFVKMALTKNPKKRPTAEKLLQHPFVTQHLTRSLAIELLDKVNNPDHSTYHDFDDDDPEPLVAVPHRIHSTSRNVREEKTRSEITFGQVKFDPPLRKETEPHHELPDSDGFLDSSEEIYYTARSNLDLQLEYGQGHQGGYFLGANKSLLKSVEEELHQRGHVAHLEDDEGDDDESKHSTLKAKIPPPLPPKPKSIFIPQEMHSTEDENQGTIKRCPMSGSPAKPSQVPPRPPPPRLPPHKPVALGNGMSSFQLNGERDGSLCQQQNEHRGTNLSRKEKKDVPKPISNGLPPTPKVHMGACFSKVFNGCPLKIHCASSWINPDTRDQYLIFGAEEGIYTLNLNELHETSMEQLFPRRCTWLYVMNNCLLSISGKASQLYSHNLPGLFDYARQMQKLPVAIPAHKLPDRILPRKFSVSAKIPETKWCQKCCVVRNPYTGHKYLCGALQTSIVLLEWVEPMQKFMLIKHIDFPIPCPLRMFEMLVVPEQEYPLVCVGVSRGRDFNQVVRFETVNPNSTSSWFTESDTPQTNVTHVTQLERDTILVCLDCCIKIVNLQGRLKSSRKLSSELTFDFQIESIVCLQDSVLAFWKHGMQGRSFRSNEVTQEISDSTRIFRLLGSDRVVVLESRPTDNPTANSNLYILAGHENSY
UniProt Q5TCX8, sequence (whole entry, looked up): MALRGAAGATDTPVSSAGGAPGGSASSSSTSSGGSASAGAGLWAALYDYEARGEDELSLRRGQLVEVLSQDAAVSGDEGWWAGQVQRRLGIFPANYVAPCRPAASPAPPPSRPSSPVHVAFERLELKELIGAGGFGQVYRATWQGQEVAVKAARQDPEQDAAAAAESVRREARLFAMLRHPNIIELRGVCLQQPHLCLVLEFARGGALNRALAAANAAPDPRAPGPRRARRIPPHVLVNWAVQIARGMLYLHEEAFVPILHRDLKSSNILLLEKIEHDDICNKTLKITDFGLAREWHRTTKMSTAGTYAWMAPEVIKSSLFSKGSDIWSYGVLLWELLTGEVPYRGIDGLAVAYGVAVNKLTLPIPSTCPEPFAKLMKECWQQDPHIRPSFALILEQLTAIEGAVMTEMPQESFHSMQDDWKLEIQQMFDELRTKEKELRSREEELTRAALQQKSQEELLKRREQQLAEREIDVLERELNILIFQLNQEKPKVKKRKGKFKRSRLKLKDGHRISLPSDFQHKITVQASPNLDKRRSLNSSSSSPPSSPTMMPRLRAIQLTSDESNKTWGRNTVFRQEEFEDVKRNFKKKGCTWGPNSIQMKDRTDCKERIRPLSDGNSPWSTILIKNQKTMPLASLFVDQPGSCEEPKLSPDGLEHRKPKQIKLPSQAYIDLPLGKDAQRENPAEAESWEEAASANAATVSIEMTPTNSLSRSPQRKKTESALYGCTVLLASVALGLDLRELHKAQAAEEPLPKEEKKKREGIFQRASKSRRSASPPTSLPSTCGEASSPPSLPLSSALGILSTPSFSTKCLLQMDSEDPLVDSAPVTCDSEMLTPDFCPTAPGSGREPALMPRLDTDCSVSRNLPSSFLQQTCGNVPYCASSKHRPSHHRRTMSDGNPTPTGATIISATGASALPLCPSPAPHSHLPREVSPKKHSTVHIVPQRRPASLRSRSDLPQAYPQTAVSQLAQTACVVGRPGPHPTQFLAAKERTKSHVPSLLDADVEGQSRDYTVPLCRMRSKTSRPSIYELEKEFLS
UniProt P51817, sequence (whole entry, looked up): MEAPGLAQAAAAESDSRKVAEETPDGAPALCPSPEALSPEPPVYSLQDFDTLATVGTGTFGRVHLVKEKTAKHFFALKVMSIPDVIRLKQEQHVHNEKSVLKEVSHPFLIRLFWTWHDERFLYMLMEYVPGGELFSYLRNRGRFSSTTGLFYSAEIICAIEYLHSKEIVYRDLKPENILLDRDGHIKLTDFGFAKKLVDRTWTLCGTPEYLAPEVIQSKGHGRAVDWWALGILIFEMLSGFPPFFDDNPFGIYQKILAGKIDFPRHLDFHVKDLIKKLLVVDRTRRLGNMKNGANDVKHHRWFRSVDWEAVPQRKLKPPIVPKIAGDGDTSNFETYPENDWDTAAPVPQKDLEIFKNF
UniProt Q15131, sequence (whole entry, looked up): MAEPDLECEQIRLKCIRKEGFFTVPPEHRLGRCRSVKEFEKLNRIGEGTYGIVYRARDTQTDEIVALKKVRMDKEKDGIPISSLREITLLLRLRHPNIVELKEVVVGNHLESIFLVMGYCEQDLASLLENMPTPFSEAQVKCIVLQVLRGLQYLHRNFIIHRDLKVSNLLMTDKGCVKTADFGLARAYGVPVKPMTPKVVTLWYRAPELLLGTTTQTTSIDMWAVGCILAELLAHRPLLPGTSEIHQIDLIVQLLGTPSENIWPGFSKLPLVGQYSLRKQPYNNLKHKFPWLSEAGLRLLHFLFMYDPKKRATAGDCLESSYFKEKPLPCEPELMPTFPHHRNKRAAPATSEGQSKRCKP

Study 1
SMILES: CCN1/C(=C/C=C2\CCCC(/C=C/C3=[N+](CC)c4ccccc4C3(C)C)=C2NCCCCCCCCN2CCC(Nc3nc4ccccc4n3Cc3ccc(F)cc3)CC2)C(C)(C)c2ccccc21
Cell line: U-87 MG
Concentration: concentration not given
Baseline: DMSO
| test | log2 fold change |
| --- | --- |
| measured: NEURL1B mRNA | -3.05 |
| measured: KCND2 mRNA | -3.81 |
| measured: RIN1 mRNA | -2.3 |
| measured: TTK mRNA | -1.87 |
| measured: TRIT1 mRNA | 0.83 |
| measured: PDE4D mRNA | 1.39 |
| measured: XRCC2 mRNA | -1.71 |
| measured: TMSB4X mRNA | -1.58 |
| measured: C11orf87 mRNA | -3.7 |
| measured: ITPRIP mRNA | 0.871 |
| measured: MACO1 mRNA | 1.25 |

Study 2
Structure (SMILES): C[C@@H]1CN(c2ccc(-c3cc(C(=O)NCCOCCOCCOCCOCCNC(=O)Cn4cc(-c5[nH]cc(C(=O)N[C@@H](CC(N)=O)c6ccc(F)c(Cl)c6)c5-c5ccc(Cl)cc5F)cn4)ccc3F)cc2NC(=O)c2c[nH]c(=O)cc2C(F)(F)F)C[C@H](C)N1C
Effect on: thermal unfolding
Method: differential scanning fluorimetry
Concentration: 5.5 µM
Direction: higher = more unfolded
WDR5: WD repeat-containing protein 5 (WDR5, Homo sapiens, UniProt P61964)
DCAF1: DDB1- and CUL4-associated factor 1 (DCAF1, Homo sapiens, UniProt Q9Y4B6)
UniProt Q9Y4B6, sequence (whole entry, looked up): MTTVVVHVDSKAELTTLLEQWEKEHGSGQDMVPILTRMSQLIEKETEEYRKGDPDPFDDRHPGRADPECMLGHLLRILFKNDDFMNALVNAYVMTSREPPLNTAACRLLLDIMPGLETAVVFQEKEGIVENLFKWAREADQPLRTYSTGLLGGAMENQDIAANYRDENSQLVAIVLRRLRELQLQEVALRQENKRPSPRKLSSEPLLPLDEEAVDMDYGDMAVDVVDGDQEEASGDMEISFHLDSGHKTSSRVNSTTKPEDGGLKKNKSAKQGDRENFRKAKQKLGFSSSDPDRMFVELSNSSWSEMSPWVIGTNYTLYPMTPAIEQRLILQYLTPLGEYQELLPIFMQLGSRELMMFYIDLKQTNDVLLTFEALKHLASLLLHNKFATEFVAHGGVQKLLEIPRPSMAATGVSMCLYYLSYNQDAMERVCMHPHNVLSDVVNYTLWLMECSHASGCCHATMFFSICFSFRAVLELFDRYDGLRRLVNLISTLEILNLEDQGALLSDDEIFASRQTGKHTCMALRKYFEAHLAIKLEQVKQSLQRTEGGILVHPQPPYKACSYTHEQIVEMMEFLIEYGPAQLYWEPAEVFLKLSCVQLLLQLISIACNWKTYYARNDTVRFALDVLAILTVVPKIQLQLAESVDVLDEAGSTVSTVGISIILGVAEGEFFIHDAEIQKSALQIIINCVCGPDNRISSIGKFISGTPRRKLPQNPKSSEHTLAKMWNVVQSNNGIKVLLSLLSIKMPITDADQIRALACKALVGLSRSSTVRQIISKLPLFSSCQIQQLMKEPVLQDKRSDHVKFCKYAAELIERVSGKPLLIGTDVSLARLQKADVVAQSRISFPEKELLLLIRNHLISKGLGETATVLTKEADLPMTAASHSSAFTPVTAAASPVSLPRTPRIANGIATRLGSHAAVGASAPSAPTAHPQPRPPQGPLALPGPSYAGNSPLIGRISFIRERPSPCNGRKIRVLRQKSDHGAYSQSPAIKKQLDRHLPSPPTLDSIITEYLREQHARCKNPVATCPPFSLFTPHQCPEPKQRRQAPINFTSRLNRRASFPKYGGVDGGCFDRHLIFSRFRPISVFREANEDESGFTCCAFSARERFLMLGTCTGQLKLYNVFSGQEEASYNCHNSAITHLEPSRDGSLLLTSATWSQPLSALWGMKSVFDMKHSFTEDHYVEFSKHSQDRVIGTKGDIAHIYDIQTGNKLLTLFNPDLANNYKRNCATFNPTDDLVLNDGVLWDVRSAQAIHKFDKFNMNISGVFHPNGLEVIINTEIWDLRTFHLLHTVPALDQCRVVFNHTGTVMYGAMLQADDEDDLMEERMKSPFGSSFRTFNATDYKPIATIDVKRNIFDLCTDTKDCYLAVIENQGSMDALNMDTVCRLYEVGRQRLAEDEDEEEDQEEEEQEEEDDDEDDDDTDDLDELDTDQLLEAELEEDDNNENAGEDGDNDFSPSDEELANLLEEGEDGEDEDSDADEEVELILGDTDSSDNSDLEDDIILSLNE
| target | conditions | SYPRO Orange fluorescence [a.u.] |
| --- | --- | --- |
| WDR5 | 73.01 °C | 8370 |
| WDR5 | 92.01 °C | 41400 |
| WDR5 | 91.21 °C | 42200 |
| WDR5 | 49.6 °C | 14500 |
| WDR5 | 42.4 °C | 14200 |
| DCAF1 | 85.41 °C | 39300 |
| DCAF1 | 57.01 °C | 24900 |

Study 3
Compound: C#Cc1cccc2cc(O)cc(-c3ncc4c(N5CC6CCC(C5)N6)nc(OCC56CCCN5CCC6)nc4c3F)c12
Target: GTPase HRas (HRAS, Homo sapiens, UniProt P01112)
Effect on: binding
Action: competitor
Method: NanoBRET
Cell line: HEK293
| conditions | normalized BRET |
| --- | --- |
| 10 µM | 38.5% and 49.7% and 59.2% and 54.2% |
| 169 pM | 92.9% and 92% and 99.1% and 102% |
| 4.57 nM | 104% and 102% and 111% and 92.9% |

Study 4
SMILES: COc1cc(-c2nc3ccc(C(=O)NCCCN(C)C)cc3n2C2CCC2)cc(OC)c1OC
Method: NanoBRET
Concentration: 1 µM
| target | target occupancy [%] |
| --- | --- |
| Cytoplasmic tyrosine-protein kinase BMX (BMX, Homo sapiens, UniProt P51813) | -2.59 |
| Serine/threonine-protein kinase PAK 4 (PAK4, Homo sapiens, UniProt O96013) | 1.51 |
| Cyclin-dependent kinase 10, with cyclin L2 (CDK10, Homo sapiens, UniProt Q15131) | -14.8 |
| Myosin light chain kinase 2, skeletal/cardiac muscle (MYLK2, Homo sapiens, UniProt Q9H1R3) | -3.39 |
| Tyrosine-protein kinase Srms (SRMS, Homo sapiens, UniProt Q9H3Y6) | -2.06 |
| Dual specificity protein kinase CLK4 (CLK4, Homo sapiens, UniProt Q9HAZ1) | -7.61 |
| Mitogen-activated protein kinase kinase kinase 21 (MAP3K21, Homo sapiens, UniProt Q5TCX8) | 6.89 |
| Myosin light chain kinase (MYLK3, Homo sapiens, UniProt Q32MK0) | -6.9 |
| Death-associated protein kinase 2 (DAPK2, Homo sapiens, UniProt Q9UIK4) | -3.39 |
| Serine/threonine-protein kinase 3 (STK3, Homo sapiens, UniProt Q13188) | 1.68 |
| cAMP-dependent protein kinase catalytic subunit PRKX (PRKX, Homo sapiens, UniProt P51817) | 1.09 |
| Microtubule-associated serine/threonine-protein kinase 4 (MAST4, Homo sapiens, UniProt O15021) | -1.21 |
| Mitogen-activated protein kinase kinase kinase kinase 3 (MAP4K3, Homo sapiens, UniProt Q8IVH8) | -1.54 |
| Serine/threonine-protein kinase TBK1 (TBK1, Homo sapiens, UniProt Q9UHD2) | 0.95 |
| Serine/threonine-protein kinase PAK 6 (PAK6, Homo sapiens, UniProt Q9NQU5) | 3.27 |
| Phosphorylase b kinase gamma catalytic chain, liver/testis isoform (PHKG2, Homo sapiens, UniProt P15735) | -3.57 |
| SNF-related serine/threonine-protein kinase (SNRK, Homo sapiens, UniProt Q9NRH2) | -1.41 |

Some of these lines once more (study 2):
| target | conditions | SYPRO Orange fluorescence [a.u.] |
| --- | --- | --- |
| DCAF1 | 85.41 °C | 39300 |
| WDR5 | 91.21 °C | 42200 |
| WDR5 | 73.01 °C | 8370 |
| WDR5 | 42.4 °C | 14200 |
